Assay results of several laboratories.
Numbered parts are unrelated; each lists some results of a single study.

Set 1
Target: Replicase polyprotein 1ab, main protease (rep, Severe acute respiratory syndrome coronavirus 2, UniProt P0DTD1)
Effect on: enzyme activity
Mode: inhibitor
Tested at: 20 µM
Notes: hit confirmation, no DTT
| Compound | inhibition [%] |
| --- | --- |
| O=C(O)[C@H]1O[C@@H](Oc2cc3oc(-c4ccccc4)cc(=O)c3c(O)c2O)[C@H](O)[C@@H](O)[C@@H]1O | 54 |
| CCc1ccc(/C=C/C(=O)Nc2ccc(C(C)=O)cc2)o1 | 64.7 |
| O=C(CCl)c1ccccc1 | 110 |
| CCCCC/C=C\C/C=C\C/C=C\C/C=C\CCCC(=O)O | 56.3 |

Set 2
Target: Replicase polyprotein 1ab, polymerase (rep, Severe acute respiratory syndrome coronavirus 2, UniProt P0DTD1)
Effect on: enzyme activity
Mode: inhibitor
Tested at: 20 µM
| SMILES | inhibition |
| --- | --- |
| O=C1c2cc(Cl)ccc2OC2CCON12 (stereo not drawn) | -0.19% |
| Cc1cc(C)c2nc(-c3ccccn3)cc(C(=O)Nc3ccc(S(=O)(=O)Nc4onc(C)c4C)cc3)c2c1 | 55.7% |
| Cc1ccccc1N1CCN(CCc2nnc3n2CCCC3)CC1 | -4.49% |
| CN1CCC[C@@H]1Cc1c[nH]c2ccc(CCS(=O)(=O)c3ccccc3)cc12 | 3.84% |
| CC(=O)CC(c1ccc([N+](=O)[O-])cc1)c1c(O)c2ccccc2oc1=O (stereo not drawn) | 1.65% |
| O=c1[nH]c(=O)c2ccccc2o1 | -8.67% |
| CCn1c2ccccc2c2cc(CNCc3ccccc3OC)ccc21 | 2.5% |
| CCC(C)N(C)C(=O)c1cc2ccccc2c(-c2ccccc2Cl)n1 (stereo not drawn) | -6.19% |
| CC(=O)Nc1nc(C)c(-c2ccc(Cl)c(S(=O)(=O)NCCO)c2)s1 | 6.81% |
| C=C[C@]1(C)C[C@@H](OC(=O)CSC(C)(C)CNC(=O)[C@H](N)C(C)C)[C@]2(C)[C@H](C)CC[C@]3(CCC(=O)[C@H]32)[C@@H](C)[C@@H]1O | -3.37% |
| COc1cccc(N2CCN(C3=Nc4c(F)cccc4[C@H](CC(=O)O)N3c3cc(C(F)(F)F)ccc3OC)CC2)c1 | -2.4% |
| CCC(CC)[C@H](NC(C)=O)[C@@H]1[C@H](O)[C@@H](C(=O)O)C[C@H]1NC(=N)N | -1.7% |
| O=C(Nc1nc2cccc(-c3ccc(CN4CCS(=O)(=O)CC4)cc3)n2n1)C1CC1 | 0.9% |
| C[C@@H](O[C@H]1OCCN(Cc2n[nH]c(=O)[nH]2)[C@H]1c1ccc(F)cc1)c1cc(C(F)(F)F)cc(C(F)(F)F)c1 | 2.15% |
| CC1(C)CCC(C)(C)c2cc(C3(c4ccc(C(=O)O)cc4)OCCO3)ccc21 | -10.3% |
| O=C1Cc2c([nH]c3ccc(Br)cc23)-c2ccccc2N1 | 2.53% |
| COC(=O)C(c1ccccc1)C1CCCCN1 (stereo not drawn) | -1.26% |
| Brc1c(Br)c(Br)c2n[nH]nc2c1Br | 20.8% |
| CCNC(=O)CCC/C=C\C[C@@H]1[C@@H](/C=C/[C@@H](O)CCc2ccccc2)[C@H](O)C[C@@H]1O | -2.67% |
| CCOC(=O)c1ncc2[nH]c3ccc(OCc4ccccc4)cc3c2c1COC | 0.33% |
| CN1c2ccccc2C(NCCCCCCC(=O)O)c2ccc(Cl)cc2S1(=O)=O (stereo not drawn) | 0.57% |
| CC(=O)SCC(Cc1ccccc1)C(=O)NCC(=O)OCc1ccccc1 (stereo not drawn) | -1.02% |
| CNc1cc(OC)c(C(=O)N[C@@H]2CCN(Cc3ccccc3)[C@@H]2C)cc1Cl (racemic) | 2.05% |
| CCc1cc2c(c(CC)n1)CCC(=O)N2Cc1ccc(-c2ccccc2-c2nn[nH]n2)cc1 | 6.36% |

Set 3
Target: Histone acetyltransferase KAT6A, both winged helices, GST fusion (KAT6A, Homo sapiens, UniProt Q92794, residues 1-181)
Method: protein binding microarray
Form: double-stranded DNA, one strand shown
Matrix: in vitro
Tested at: not given
Notes: 8-mer, flanks averaged, mean of 2 arrays, mostly near background
Reference: not given
Direction: higher = stronger binding
Construct (chain): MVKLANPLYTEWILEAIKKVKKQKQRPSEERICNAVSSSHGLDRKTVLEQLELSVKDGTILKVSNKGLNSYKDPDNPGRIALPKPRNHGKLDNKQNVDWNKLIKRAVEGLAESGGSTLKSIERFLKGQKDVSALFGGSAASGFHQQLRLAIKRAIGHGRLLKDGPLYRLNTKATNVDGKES
| Oligonucleotide | E-score |
| --- | --- |
| CCGGCGCC | 0.36 |
| ACAGTCTA | 0.0314 |
| AAAGACTT | -0.214 |
| AAAGCACA | -0.188 |
| AACCCAGT | -0.152 |
| GCCAGGTA | -0.0301 |
| AGCCTTGG | -0.251 |
| ATCTCGCC | 0.0815 |

Set 4
Target: Fragile X messenger ribonucleoprotein 1, C-terminal low-complexity region (Fmr1, Mus musculus, UniProt P35922)
Method: RNA Bind-n-Seq
Form: RNA
Matrix: in vitro
Tested at: 200 nM
Notes: whole 134-nt RNA, ends assumed
Added: 150 mM LiCl
Reference: input library
Direction: higher = stronger binding
Each molecule: 7-deaza-guanosine replaces G
All sequences stand within: GGGAGUUCUACAGUCCGACGAUC … UGGAAUUCUCGGGUGUCAAGG
| Oligonucleotide | log2 enrichment |
| --- | --- |
| AGUCCUGUGCUACACAUCGUAUGUACCGAAUCGGGUUUUUGGGUUUUUGGGUUUGGGAAAGUAUUAUGUUACGCCGUUCGGAUCUGCACU | -1.8 |
| CACAGACAACACGCACCCACACAGACACACAGGGAAGGGGUUGGGAUGGGGACAGGGUGCACAGCAGGGCGGGGUAGGACCCCAGCCCCU | 0.0973 |
| UCAAGUCCUGUGCUACACAUCGUAUGUACCGAAUCGGGUGGGAAAAAGGGAGGGAAAGUAUUAUGUUACGCCGUUCGGAUCUGCACUUCC | -0.467 |
| GCAGGAAGUAAAAACAAAUGGAAAUGCUUCGGAUAGCGGCAGGGGUGGGGGUUGCUAAGGAAAGGGUGGGAUGGGAGUGGGUAAAGAGUU | 1.46 |
| AAGUCCUGUGCUACACAUCGUAUGUACCGAAUCGGGUUUGGGAAAAAGGGUUUGGGAAAGUAUUAUGUUACGCCGUUCGGAUCUGCACUU | -2.77 |

Set 5
Target: RNA binding protein fox-1 homolog 2, RRM domain, GST-SBP tag (RBFOX2, Homo sapiens, UniProt O43251-10, residues 100-194)
Method: RNA Bind-n-Seq
Form: RNA
Matrix: in vitro
Tested at: 365 nM
Notes: natural RNA segment, single round, ends assumed
Reference: no-protein control
Direction: higher = stronger binding
All sequences stand within: GGGAGUUCUACAGUCCGACGAUC … UGGAAUUCUCGGGUGCCAA
Residues (chain): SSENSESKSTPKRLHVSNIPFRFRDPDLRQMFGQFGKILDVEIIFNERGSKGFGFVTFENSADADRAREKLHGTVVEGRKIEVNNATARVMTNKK
| Oligonucleotide | RBNS enrichment (R) |
| --- | --- |
| GGUCCUACCUAAAUGUCCAGCAGGACAUUAGACAGUCGUACAGGGUACAGAAUAAUUCUUCGUUGUGUGGCACUAACCCACACACUGCAGGACAUCGUUCUCCCUGGCUG | 0.214 |
| ACAAUGGAGGGCACCUCCUGUCACCCCCCUCCCGGAGUAGCCACGACUCCAGCCACCACCCACUGACGUUAUUUUUAUACUAGAUGAAGAGGUCAACAGCAGGCAUGGGG | 0.626 |
| AGUUCUAAUUUGGGUUAAUAUUUUUAAAUGUAUUGUUUACUUUUGUAAUUAUAUACACAACAAAUAUUAGUGACUAGUUUUUGUAUUUGACAACUGUUUACCAUUGUGUU | 0.475 |
| UUAUCCUAGUGAGGUCAUUAUCAGGAGUUGCCAUAUCAUCUCUCCAGUACCUAACAUUUCUCAUCCACUUCAAAAGCUGUUCUGACUGCCAGCUGGCUGAUCUAAGCUCC | 0.356 |
| AAUAAUGACAAUUUAUGAAUUUGUGUUUCAAAUUGAUAAAAUAUUUAGGUACAAAUAACAAGACUAAUAAUAUUUUCUUAUUUAAAAAAAGCAUGGGAAGAUUUUUAUUU | 1.07 |
| UUUGCACAAUGUCUUUGGUUGCAAGUCAUAAGCCUGAGGCAAAUAAAAUUCCAGUAAUUUCGAAGAAUGUGGUGUUGGUGCUUUCCUAAUAAAGAAAUAAUUUAGCUUGA | 5.66 |
| UAAUUAUGAAAAAUGGUCUGUUCAUAAUUGGUAGGUGCCUUUUGUGAGCAGGGAGCAUAAUUAUUGGUUUAUUAUGGUAAUUAUGGUGAUUUUUUAAAUAUCAUGUAAUG | 0.324 |
| CCACCUGCUGCCAGGCCUCACCAAAGCCAACUGUCACAGGGCCACCUGGGCCACUCAGAGACCUCAGUGGGACUGGGAGAGUGGAGGGAACUACAUCAGCGCCCACACUG | 0.383 |

Other studies, line by line
Cell line: HEK-293T
Organism: VSV pseudotyped with SARS-CoV-2 spike
Tested at: 10 µM
Time: 16 h
| Compound | test | scale | quantity | result |
| --- | --- | --- | --- | --- |
| CN1CCC(=C2c3ccccc3CCc3cccnc32)CC1 | pseudovirus infection | reference: vehicle-treated | GFP-positive cells | 62.9% |
| CCCCS(=O)(=O)N[C@@H](Cc1ccc(OCCCCC2CCNCC2)cc1)C(=O)O |  |  | pseudovirus infection | 78.2% |

A few entries again (set 1):
| Compound | inhibition [%] |
| --- | --- |
| O=C(O)[C@H]1O[C@@H](Oc2cc3oc(-c4ccccc4)cc(=O)c3c(O)c2O)[C@H](O)[C@@H](O)[C@@H]1O | 54 |
| CCc1ccc(/C=C/C(=O)Nc2ccc(C(C)=O)cc2)o1 | 64.7 |
| CCCCC/C=C\C/C=C\C/C=C\C/C=C\CCCC(=O)O | 56.3 |
| O=C(CCl)c1ccccc1 | 110 |
